Values quoted from earlier work as cited in several papers.
Numbered parts are unrelated; values within a part may stem from several laboratories. pIC50, pKi: −log10 of the molar value.

Series 1
Organism: Plasmodium falciparum
Read-out: parasite growth
Tested at: concentration not given
SMILES | antiparasitic activity
NCCc1ccc(O)c(O)c1 | active
CN/C(=N/CCSCc1nc[nH]c1C)NC#N | active
CNCCCC12CCC(c3ccccc31)c1ccccc12 | active
CC(C)NCC(O)COc1ccc(CCOCC2CC2)cc1 (stereo not drawn) | active
Nc1nc2ccc(Cl)cc2c2nc(-c3ccco3)nn12 | active
Cn1cnc([N+](=O)[O-])c1Sc1ncnc2nc[nH]c12 | active
Nc1c2c(nc3ccccc13)CCCC2 | active
CNCCC=C1c2ccccc2CCc2ccccc21 | active
Cc1cccc(C)c1OCC(C)N (stereo not drawn) | active
OC(CCN1CCCCC1)(c1ccccc1)C1CCCCC1 (stereo not drawn) | active
Brc1c(NC2=NCCN2)ccc2nccnc12 | active
COc1cc(Cc2cnc(N)nc2N)cc(OC)c1OC | active

Series 2
Target: dopamine D2 receptor
Read-out: binding
Structure (SMILES) | pKi
O=C1CC2(CCCC2)CC(=O)N1CCCCN1CCN(c2ncccn2)CC1 | 6.50
CN(C)CCCN1c2ccccc2CCc2ccccc21 | 6.14
O=c1ccc2ccc(OCCCCN3CCN(c4cccc5sccc45)CC3)cc2[nH]1 | 9.52
CN1CCN(C2=Nc3ccccc3Oc3ccc(Cl)cc32)CC1 | 7.68

Series 3
SMILES: CCCCCCCCNC(C)C(O)c1ccc(SC(C)C)cc1 (stereo not drawn)
Cell line: MCF7
Method: microarray
Tested at: concentration not given
Reference: DMSO
refers to | log2 fold change
STX3 mRNA | 1.63
VEGFA mRNA | 2.22
TMEM41B mRNA | 1.35
STX5 mRNA | 2.18

Mixed results
SMILES | target or system | read-out | method | setting | endpoint | value
CNC(=O)Nc1ccc2c(c1)C1(CC2)OC(=O)N(CC(=O)N(Cc2ccc(F)cc2)[C@@H](C)C(F)(F)F)C1=O (single isomer, unassigned) | EP300 | biochemical activity | – | – | pIC50 | < 5.00
CC(=O)Nc1c(C(C)=O)c(=O)n(C)c2nc(-c3ccc(Cl)cc3Cl)c(-c3ccc(Cl)cc3)cc12 | ADORA3 | – | MSD Pharma Taiwan panel screen | – | pKi | 6.11
CO[C@@H](C)c1c(Nc2ccc([C@H](N(C)C(=O)C3CCS(=O)(=O)CC3)C(F)(F)F)cc2)cnc2cc(Cl)nn12 | human MALT1 | – | biochemical | high salt | pIC50 | 8.62
CN(C)CC#Cc1ccc(OCCCc2sc(N3CCc4cccc(C(=O)Nc5nc6ccccc6s5)c4C3)nc2C(=O)O)c(F)c1 | primary colorectal cancer spheroids | cell growth | – | – | effective concentration | ~100 nM

Excerpt of the above (mixed results):
SMILES | target or system | read-out | method | setting | endpoint | value
CNC(=O)Nc1ccc2c(c1)C1(CC2)OC(=O)N(CC(=O)N(Cc2ccc(F)cc2)[C@@H](C)C(F)(F)F)C1=O (single isomer, unassigned) | EP300 | biochemical activity | – | – | pIC50 | < 5.00
CC(=O)Nc1c(C(C)=O)c(=O)n(C)c2nc(-c3ccc(Cl)cc3Cl)c(-c3ccc(Cl)cc3)cc12 | ADORA3 | – | MSD Pharma Taiwan panel screen | – | pKi | 6.11
CO[C@@H](C)c1c(Nc2ccc([C@H](N(C)C(=O)C3CCS(=O)(=O)CC3)C(F)(F)F)cc2)cnc2cc(Cl)nn12 | human MALT1 | – | biochemical | high salt | pIC50 | 8.62
CN(C)CC#Cc1ccc(OCCCc2sc(N3CCc4cccc(C(=O)Nc5nc6ccccc6s5)c4C3)nc2C(=O)O)c(F)c1 | primary colorectal cancer spheroids | cell growth | – | – | effective concentration | ~100 nM
